Results of several laboratories.
Each numbered part is a random draw from the data of one study; scales do not carry over between parts. Changes are numbered by the printed parent chain.

Study 1 — technique: protein binding microarray; form: double-stranded DNA, one strand shown; sample: in vitro; concentration: not given; relative to: not given; reading: higher = stronger binding; quantity: E-score
Target: Histone acetyltransferase KAT6A, both winged helices, GST fusion (KAT6A, Homo sapiens, UniProt Q92794, residues 1-181)
Setting: 8-mer, flanks averaged, mean of 2 arrays, mostly near background
Target sequence (chain): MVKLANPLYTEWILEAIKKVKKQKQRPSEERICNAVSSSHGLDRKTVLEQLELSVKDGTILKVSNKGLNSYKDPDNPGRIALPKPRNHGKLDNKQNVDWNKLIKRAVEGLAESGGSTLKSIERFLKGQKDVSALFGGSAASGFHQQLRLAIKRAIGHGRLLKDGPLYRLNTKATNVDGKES
AACGATCA: -0.0162
GTCACGAA: -0.0271
AACTAATC: -0.0617
CGTCCTAC: -0.0332
ACCCTGGA: -0.211
CGCTCGCA: 0.196
ATGAAGGA: -0.2
CGTAGCGA: 0.126
GAAAATTA: -0.128
ACCAAAGG: -0.247
GCGTTACC: 0.218
AAGAATTG: 0.00178
ACCGAGCG: 0.24
TCACCCGA: 0.0521
AGCCTCTA: -0.21
CATGGGCA: -0.0561

Study 2 — technique: competition protein-binding microarray; form: double-stranded DNA, one strand shown; sample: in vitro; concentration: 2 µM; together with: Cbf1 competitor, 0.05 µM; reading: higher = stronger binding; quantity: fluorescence intensity
Target: Phosphate system positive regulatory protein PHO4, full length, GST-tagged (PHO4, Saccharomyces cerevisiae, UniProt P07270, residues 1-312)
Setting: whole 60-bp probe, lowest competitor level
Construct (chain): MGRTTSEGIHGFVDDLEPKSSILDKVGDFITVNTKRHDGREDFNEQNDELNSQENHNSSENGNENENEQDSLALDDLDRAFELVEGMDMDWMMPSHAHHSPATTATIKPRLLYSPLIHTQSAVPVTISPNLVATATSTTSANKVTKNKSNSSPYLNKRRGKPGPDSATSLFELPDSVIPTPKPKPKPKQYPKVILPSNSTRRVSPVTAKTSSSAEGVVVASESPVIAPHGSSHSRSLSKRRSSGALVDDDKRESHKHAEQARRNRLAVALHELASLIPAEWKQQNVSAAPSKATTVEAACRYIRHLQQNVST
CAACAAGCCTGTTACACCATGACAACAGATCCTTCTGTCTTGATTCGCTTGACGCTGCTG: 4300 a.u.
AAATTACTAAGTTGCCCAGTGGGTGACGCCGTATGAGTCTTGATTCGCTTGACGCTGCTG: 3860 a.u.
CGGGGTTAAGTTTGGTTGGTGGGTGGCTTGCAGCAGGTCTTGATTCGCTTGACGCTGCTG: 4990 a.u.
CGTCCTAGTGATTTTCACGTGCCATCCATGAGGAAGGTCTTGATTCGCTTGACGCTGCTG: 13500 a.u.
ATATGCCAGGCAAATAACGTGTCGGTGATTGTGAAGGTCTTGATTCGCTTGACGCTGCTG: 8950 a.u.
TGCGCAACAACTTGTAGTGTGGGTGTATGTCTAGAAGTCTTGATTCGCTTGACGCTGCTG: 5910 a.u.
TCGGAGAAAGCATCTCACGGGGAACAATTGGTTAGAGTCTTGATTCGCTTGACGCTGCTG: 4960 a.u.
CGCTTCCCAGCTTTTCACGTGCGATGTGGACTAATAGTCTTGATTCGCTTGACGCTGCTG: 14200 a.u.
AAATTACTAAGTTGTTAGGTGGGTGACGCCGTATGAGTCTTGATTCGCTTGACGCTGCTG: 3720 a.u.
AACCGAATGGCATCGCACGCTATGCAACTAATGACCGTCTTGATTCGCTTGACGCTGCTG: 7730 a.u.
TGCGCAACAACTTGTCGCGTGGGTGTATGTCTAGAAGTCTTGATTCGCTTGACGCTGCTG: 9360 a.u.
CCAAAGGTAACTTAGCGTGTGATATCACCGGAAGAGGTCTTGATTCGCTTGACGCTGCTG: 4710 a.u.
CGAAGGACGTCGCTACACGTGAAAATTCTCCACCAAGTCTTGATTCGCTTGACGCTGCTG: 10300 a.u.
TGCGCAACAACTTGGCACGTGTTTTTATGTCTAGAAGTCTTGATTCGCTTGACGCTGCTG: 18100 a.u.
AAAGCGGTAATTTGAGGCGTGGGTGCAGATATCTATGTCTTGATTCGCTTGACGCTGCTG: 8730 a.u.
TTATCAGTTCTACAGCACGCAGAGAAAAGTAAACGAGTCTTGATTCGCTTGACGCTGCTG: 8370 a.u.
CAGAACAGGTTTGTATTCGTGATGGTGTCCCTGAAGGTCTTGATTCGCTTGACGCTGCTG: 4370 a.u.

Study 3 — technique: universal PBM; form: double-stranded DNA, one strand shown; sample: in vitro; concentration: 600 nM; reading: higher = stronger binding; quantity: E-score
Target: Sal-like protein 4, full length isoform A (SALL4, Homo sapiens, UniProt Q9UJQ4, residues 1-1053)
Chain of UniProt Q9UJQ4 (whole entry, looked up): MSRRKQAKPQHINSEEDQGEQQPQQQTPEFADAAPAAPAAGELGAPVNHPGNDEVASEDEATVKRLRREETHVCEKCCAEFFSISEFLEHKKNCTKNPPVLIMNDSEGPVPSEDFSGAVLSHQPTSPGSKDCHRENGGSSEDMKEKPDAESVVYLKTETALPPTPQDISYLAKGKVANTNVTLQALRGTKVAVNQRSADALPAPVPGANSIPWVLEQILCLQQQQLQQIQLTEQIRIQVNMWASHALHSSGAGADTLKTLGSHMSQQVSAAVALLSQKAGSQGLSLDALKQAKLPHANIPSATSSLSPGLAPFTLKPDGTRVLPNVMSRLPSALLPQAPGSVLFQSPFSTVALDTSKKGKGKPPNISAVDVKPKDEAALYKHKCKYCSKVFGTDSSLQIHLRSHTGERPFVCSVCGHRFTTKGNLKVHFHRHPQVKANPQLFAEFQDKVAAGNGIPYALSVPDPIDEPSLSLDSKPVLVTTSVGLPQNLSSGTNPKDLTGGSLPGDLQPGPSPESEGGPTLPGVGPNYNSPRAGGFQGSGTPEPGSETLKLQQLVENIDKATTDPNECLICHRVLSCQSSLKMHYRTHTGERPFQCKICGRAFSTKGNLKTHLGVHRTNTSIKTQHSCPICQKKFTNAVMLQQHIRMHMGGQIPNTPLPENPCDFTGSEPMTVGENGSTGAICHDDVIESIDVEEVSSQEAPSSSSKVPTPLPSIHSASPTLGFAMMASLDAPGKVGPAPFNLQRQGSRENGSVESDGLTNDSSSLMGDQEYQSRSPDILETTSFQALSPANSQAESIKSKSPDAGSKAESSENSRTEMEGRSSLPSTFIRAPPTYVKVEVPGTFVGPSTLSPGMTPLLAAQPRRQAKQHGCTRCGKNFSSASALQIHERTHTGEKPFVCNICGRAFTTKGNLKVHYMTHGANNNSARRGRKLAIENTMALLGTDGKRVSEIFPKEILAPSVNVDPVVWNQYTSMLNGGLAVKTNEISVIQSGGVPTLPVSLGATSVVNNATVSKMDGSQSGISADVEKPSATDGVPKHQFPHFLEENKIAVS
Setting: 8-mer, flanks averaged, mean of replicates
CCTTTCAG: -0.133
AAATCTGC: 0.0886
AGCCTGCC: -0.311
CGGCCACA: -0.217
ACAGGACG: -0.176
CAATGTGC: 0.0773
AATGTGCT: 0.154
TGCAGCCA: -0.204
GTCGTCGA: -0.191
GTATAGCA: 0.222
CGGAGGAA: -0.266
CAGGCATG: -0.0461
CTGAACAG: -0.0846
CAAGATTC: 0.125
ACGGGAGC: -0.275
ATCACCAA: 0.138
ACACCGCT: -0.218
CAGCAGGG: -0.244
AGAGAAAG: 0.0506
CTTGGAGC: -0.258
GTCGAGAA: 0.0497
ACTGAACT: 0.038

Study 4 — target: CCND2, cyclin fold, Cln2 fusion (human); technique: yeast growth competition, sequencing; sample: yeast; setting: weak parent motif; relative to: not given; reading: higher = stronger binding; quantity: normalised enrichment score
Starting sequence: WEE1 docking peptide (human); HKTFRKLRLFDTP
HKTVRKLRLFDTP [F4V]: -0.0109
HKTFRKLCLFDTP [R8C]: 0.0759
HKTFRKLRLFITP [D11I]: -0.198
HKIFRKLRLFDTP [T3I]: -0.223
HKTFRKLRLADTP [F10A]: -0.0105
TKTFRKLRLFDTP [H1T]: 0.356
HKTFRKLRLFETP [D11E]: 0.0385
HRTFRKLRLFDTP [K2R]: 0.471
HKTFRFLRLFDTP [K6F]: -1.07
HKTFRKLRLFDTR [P13R]: -0.412
HKTERKLRLFDTP [F4E]: 0.329
HKTFRKLRRFDTP [L9R]: -0.211
HKPFRKLRLFDTP [T3P]: -0.0169
AKTFRKLRLFDTP [H1A]: -0.0475
HKTFRKLRSFDTP [L9S]: 0.664
HKTFRKLRMFDTP [L9M]: -0.0511
HKTFRKLRLFCTP [D11C]: 0.276
HKTFRKLRLFGTP [D11G]: -0.81
HKTQRKLRLFDTP [F4Q]: -0.0117
HKTFRKLRLFDTL [P13L]: -0.0672
HKTFRKLRLFDCP [T12C]: -0.114
HKTFRKLRLFHTP [D11H]: -0.777
HKTFRKLRLIDTP [F10I]: 0.419

Study 5 — technique: RNA Bind-n-Seq; form: RNA; sample: in vitro; concentration: 365 nM; relative to: no-protein control; reading: higher = stronger binding; quantity: RBNS enrichment (R)
Target: RNA binding protein fox-1 homolog 2, RRM domain, GST-SBP tag (RBFOX2, Homo sapiens, UniProt O43251-10, residues 100-194)
Setting: natural RNA segment, single round, ends assumed
Construct (chain): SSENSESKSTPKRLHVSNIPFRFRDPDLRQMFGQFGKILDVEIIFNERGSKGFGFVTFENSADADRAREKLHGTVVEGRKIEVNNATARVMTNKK
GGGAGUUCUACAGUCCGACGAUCGCAUGCUUUCUGGAGAUGAGGAUUUUUUGUCAGGUAGCUAGGAGAGCACUGCCACCUUGUGUCCAUAUAGCACAAUGUUUCUCUUUCCUAUUCACAGACAAGAUUCAAGAUGGAAUUCUCGGGUGCCAA: 8.92
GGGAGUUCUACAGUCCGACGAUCUACAUUUGUUAAGGUAUGCGCAUAAUUACAGCAACUGUUUUUAUAGUUUGUAUCCCAGAGUAUACUGUGUUGAAAUAAGAAGAUGCAUAGCAGCUGAAUGCAUGCAUGACUGGAAUUCUCGGGUGCCAA: 0.496
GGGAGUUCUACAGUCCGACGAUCUGUAAAGACAAUGUAGAAAACACACUAAUUACUGUUUGUAGUGUCUUUGGAUGCUCACGGGUUCUGUUCCAGUGCUAUUUUCUAUGAAUAUAGCAGCAUCGUUUCCUUUUUGGAAUUCUCGGGUGCCAA: 0.354
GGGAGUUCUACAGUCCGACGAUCAUGCUCAUACAAUAAUCUCAAGAGCCCUGUCUGUUUCGUAAUAGUAACUACUUCUCAUGAACACUACCCAAGGAGGAAGCCUGCACCUGGGAAGUGUGCAGUGUGAGCUCUGGAAUUCUCGGGUGCCAA: 0.614
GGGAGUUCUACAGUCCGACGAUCCCCCAAAUUCUUUUGUUGUGUGUGCGAAGGGGGUUUUGCGCACUGUGCCAAGCCUUGUCCACUGGAAUGCAUCCAGAACAGCAGCACCAUCUAGCGGCAGGUUGAGGAAAUGGAAUUCUCGGGUGCCAA: 1.68
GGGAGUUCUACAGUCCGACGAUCUUUCUAUGACUGCAGGGUUUUUUUAUACAGUGUUUUUGGAUUCAUAAUAAAUUGAUGGUUUUUUAUGACAUGCUUUUCUGCCCCACCAUGUUGAUUUGUGACCAGUGUCCUGGAAUUCUCGGGUGCCAA: 0.854
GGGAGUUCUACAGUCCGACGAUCAGCCUGGCAGGGCACAGUUUCUAGAGGGCCCGUCCCCAGCCCGGGCCGUCCAUCCUCGCAUUGCUGUUGAAUGGUGAGCACGUGACCAUGCCGACCACAAAGGUGUCUGCUGGAAUUCUCGGGUGCCAA: 1.48
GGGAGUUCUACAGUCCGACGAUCAACUAUCAACAUUGUAAACCAAAUUGCCUUAUUUUCCUUCCAAACUUCAUAUAUCUAUCAGGUAAUAUAGGCUUGAAAAUUGAUAUCCUGUGGUGCUAAAGUACAGUAGAUGGAAUUCUCGGGUGCCAA: 0.707

Excerpt of the above (study 3):
CAGGCATG: -0.0461
AGAGAAAG: 0.0506
AATGTGCT: 0.154
CAATGTGC: 0.0773
ACACCGCT: -0.218
CAGCAGGG: -0.244
AGCCTGCC: -0.311
